Published values gathered from unrelated publications.
Numbered parts are unrelated; each lists some results of a single study. Positions count from the first letter of the parent shown.

Series 1
Target: Sal-like protein 4, full length isoform B (SALL4, Homo sapiens, UniProt Q9UJQ4-2, residues 1-616)
Method: universal PBM
Form: double-stranded DNA, one strand shown
Sample: in vitro
Tested at: not given
Setting: 8-mer, flanks averaged, mean of replicates
Direction: higher = stronger binding
Strand	E-score
ATCCCTTA	0.105
AAGTGAAT	0.2
ACATTCCA	0.0717
TATACGCA	0.114
CGAGGCCG	-0.312
CCGGAGCA	-0.223
ATTACGAA	0.215
GACGTCCC	-0.272

Series 2
Target: Hepatocyte nuclear factor 3-alpha (Foxa1, Mus musculus, UniProt P35582, residues 1-468, full length assumed)
Chain of UniProt P35582 (whole entry, looked up): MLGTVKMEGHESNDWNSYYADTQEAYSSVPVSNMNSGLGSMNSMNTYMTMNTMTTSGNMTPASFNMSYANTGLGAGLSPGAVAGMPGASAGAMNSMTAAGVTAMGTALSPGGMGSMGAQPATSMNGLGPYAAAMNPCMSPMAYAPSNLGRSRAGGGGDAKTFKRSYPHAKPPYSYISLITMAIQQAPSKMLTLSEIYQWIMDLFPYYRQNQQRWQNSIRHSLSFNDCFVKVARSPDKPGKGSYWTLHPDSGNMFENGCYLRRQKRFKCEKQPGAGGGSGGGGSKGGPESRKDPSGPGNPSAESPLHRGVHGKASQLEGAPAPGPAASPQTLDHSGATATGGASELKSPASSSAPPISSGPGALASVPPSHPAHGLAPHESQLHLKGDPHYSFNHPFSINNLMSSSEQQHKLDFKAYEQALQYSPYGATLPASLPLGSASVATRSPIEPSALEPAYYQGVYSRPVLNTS
Method: EMSA with sequencing
Form: double-stranded DNA, one strand shown
Sample: in vitro
Tested at: 10 and 20 nM
Setting: whole designed probe, mean of two concentrations, ends assumed
Baseline: negative control set to 0
Direction: higher = stronger binding
Shared flanks, not repeated: GTGAGCGGTGCCCATTGATGGGGAAC … TTTCACTGGGATCGTGGGGAC
Strand	normalised bound fraction [ratio]
TGTATGAAATTTGTACAGAGGTGGAATCGTTTCTGCCATTTTTCACACACAAGTTGGTGCACATTCCTAATATGAATTAAAAATAAATATGCCAAGAGTACTCTGGGATGAGTCATCTTTGCATGCAGCCAGCCATGGCCACTGGGAGAAGAGTCAGACATGGGCCATGGAGCTGCAGGCTCACCTGCCCCCG	0.0983
GGGCCCAGCTGGAGCCTGAAGATACTGGGCTCCACCCAACATGTTGGGTGAGGGAAACTGGGCCATATTAGGAATTGCACAAAGATCTCAATGTAATCTGGAGCTGAACTGCAACCTGGGCATAAAGGAGAAACTGGATGTTTGGGTCCATAAGGCAGAGAAATGTTTGAGAACTTGTCTCAAAATTCTTCTG	-0.0169
ATCTGAAGGTTCTCAAGATCCTAAATGACTTCTGAAATTAAATTATGTTCAGTAAAAAGCTAAGTTAAACTCTTTAGGTTTTGAATAAACCTAAGTAAACAACAATTTTGTTGCACTAAAATAATACCTATCTTAAAAGTGGTTTCCCCAAACTATTAGCCAATCTCTTTCTCTAACCAAGCACTATTTTACC	0.436
ATCTTCCCCCTCTTCCTTGCCCCACCAGCTCACCTTCCCGGGTATATTGGAGATAGGAAATTAATATAAGCCGGCATTCGTTAACCCTCTTCACGCGCATACTGCTGTTTACTTTGGATCTAACATGGTCCTTTGGCGACGCCAGGCTCCGGGAGAGCAAAGCACCGTGTCAGGGCCATGATCCGGGGTGGCC	0.337
GGATTCTTTCATTATACAAATACAGATGTTATTTTTTAATTTCAGAAGAAATCATGGTATATCAATCTATTGAGTGCTAACTAAAAGTTCCCTTTGTTTACTTAGCTTTCTCTTAGTTATAAGAAAGAAAAAGACCTCTTGCATGAAAATAGTACGTTGCAGGAAGAAATTGTCATGCTAAGACTGGAACTAG	0.519
TTTATGATCTGAGTATATATAGTAAGTACCTCCCCTTTCAGGGTAAGGCAGTAGGTAATGGTGAACAGGGAAGCAAAAGGTGACTCAGGTTGAGTAAACAACACCAAGCATATCTGACTCAAGGAATGCTTCAGAGGCCAGGGGTGCATGCCTGTAATCCCAGCACCTTGGAAGGCTGACACAGGAGGATCAC	0.385
TAAAATATTTAGATAAACTTAGATCCACTGTAGCTTGAAATTGTAATTTTCCCAGAGATTTCTATGGAATTAATTTTGTAAGAAACTAATATGTAAACATGAATGCTAATTTATAGATGCTTTTGCTTTTATCAGTAATATTTAATGTAGTTCTCTTCTATTTTTTGAAAATGATTACCTTGCTAAAGACATT	0.234
GGTTAGAGGAAGTAAGGTAATGCAAGTGTTAAATTATGTGTGAAAGATGGGATGCCTGGAAGAAATTCATATCACAAATATTACAGAAAGATAAGTAATCTGGGATTTAATATTCATGGATTTTTCTCCTATTTTATTTAAAATGTCAGACCTGTCTTAATGAGGTTCTACTGACATTTATTCTTTTTTAATT	-0.00321

Series 3
Target: ABI1, truncated, D143A, DHFR fusion (Arabidopsis thaliana)
Method: DHFR PCA, deep sequencing
Sample: yeast
Setting: methotrexate growth selection, single substitutions
Together with: (+)-ABA 0 µM
Baseline: wild-type fitted maximum
Direction: higher = stronger binding
Starting sequence: PYL1, truncated, DHFR fusion (Arabidopsis thaliana); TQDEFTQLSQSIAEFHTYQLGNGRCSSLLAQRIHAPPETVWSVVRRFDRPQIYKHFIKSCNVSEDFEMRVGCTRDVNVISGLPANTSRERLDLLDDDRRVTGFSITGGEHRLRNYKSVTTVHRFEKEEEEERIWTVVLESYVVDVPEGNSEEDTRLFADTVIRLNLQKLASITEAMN; partner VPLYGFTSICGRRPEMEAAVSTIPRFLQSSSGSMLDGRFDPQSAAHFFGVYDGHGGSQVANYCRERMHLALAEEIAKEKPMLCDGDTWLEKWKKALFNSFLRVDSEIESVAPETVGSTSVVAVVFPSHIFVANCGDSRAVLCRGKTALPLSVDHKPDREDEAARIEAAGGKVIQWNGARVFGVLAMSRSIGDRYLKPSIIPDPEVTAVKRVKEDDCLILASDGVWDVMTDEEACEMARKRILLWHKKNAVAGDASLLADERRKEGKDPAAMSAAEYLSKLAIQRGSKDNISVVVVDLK
Substitution	relative binding score [%]
P36C	4.03
M68D	3.19
E67Q	27.6
S140M	3.23
D65N	27.9
R88M	9.44
R111I	3.9
S104V	-0.284

Single results of other studies
Starting sequence: viral docking peptide; KKVKRRLFETREL
Substitution	target	test	test system	setting	how to read	endpoint	value
K4A	CCND1, cyclin fold, Cln2 fusion (human)	yeast growth competition, sequencing	yeast	weak parent motif	baseline: not given, higher = stronger binding	normalised enrichment score	-0.133

A few entries again (series 1):
Strand	E-score
ATTACGAA	0.215
ACATTCCA	0.0717
GACGTCCC	-0.272
